# Measured values of several laboratories.
# Every numbered part comes from another study and shows a few of its results, in no order. Changes are numbered by the printed parent chain.

# Series 1
# Substitution: S87Y
# Target: ABI1, truncated, D143A, DHFR fusion (Arabidopsis thaliana)
# Technique: DHFR PCA, deep sequencing
# Sample: yeast
# Notes: methotrexate growth selection, single substitutions
# Baseline: wild-type fitted maximum
# Direction: higher = stronger binding
# Starting sequence: PYL1, truncated, DHFR fusion (Arabidopsis thaliana); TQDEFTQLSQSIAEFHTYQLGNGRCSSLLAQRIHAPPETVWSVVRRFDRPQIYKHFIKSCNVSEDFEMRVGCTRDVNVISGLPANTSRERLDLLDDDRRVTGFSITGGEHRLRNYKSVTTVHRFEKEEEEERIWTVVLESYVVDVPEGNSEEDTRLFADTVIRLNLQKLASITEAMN
conditions,relative binding score [%]
with: (+)-ABA 0.11 µM,54.7
with: (+)-ABA 0 µM,46.7
with: (+)-ABA 2500 µM,21.2
with: (+)-ABA 58 µM,26.2
with: (+)-ABA 4.8 µM,33.4
with: (+)-ABA 0.0091 µM,53.2

# Series 2
# Partner: H2BC14 (Homo sapiens, UniProt Q99879)
# Technique: cross-linking MS
# Notes: hits only
Substance,interaction screen
"H2AC20 (Homo sapiens, UniProt Q16777)",cross-linked
"H2AC18 (Homo sapiens, UniProt Q6FI13)",cross-linked
"H3-4 (Homo sapiens, UniProt Q16695)",cross-linked
"H2BC15 (Homo sapiens, UniProt Q99877)",cross-linked

# Series 3
# Target: Histone acetyltransferase KAT6A, winged helix 1, GST fusion (KAT6A, Homo sapiens, UniProt Q92794, residues 1-85)
# Technique: protein binding microarray
# Molecule type: double-stranded DNA, one strand shown
# Sample: in vitro
# Tested at: not given
# Notes: 8-mer, flanks averaged, mean of 2 arrays, mostly near background
# Baseline: not given
# Direction: higher = stronger binding
# Construct (chain): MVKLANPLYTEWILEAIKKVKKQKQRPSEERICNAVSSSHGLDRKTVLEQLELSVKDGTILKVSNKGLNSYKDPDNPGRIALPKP
Strand,E-score
CGCTCAAA,0.114
CGCGTAAC,0.381
AAATAAGT,-0.351
CGATCTAG,-0.134
CCCATCGC,0.16
CCCACCCG,0.244
AACTAGTG,-0.16
CCAGAACG,0.00567

# Other studies, line by line
# P1: viral docking peptide; KGVKRKLFAEDSS; partner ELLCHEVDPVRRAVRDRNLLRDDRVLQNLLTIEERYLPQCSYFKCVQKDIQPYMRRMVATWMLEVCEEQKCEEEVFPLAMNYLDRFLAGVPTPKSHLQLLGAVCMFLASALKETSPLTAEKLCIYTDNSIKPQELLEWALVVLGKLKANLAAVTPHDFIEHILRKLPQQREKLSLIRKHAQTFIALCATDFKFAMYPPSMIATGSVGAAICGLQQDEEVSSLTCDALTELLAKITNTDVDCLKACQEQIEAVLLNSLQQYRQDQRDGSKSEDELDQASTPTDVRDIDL
Substance,target,test,system,conditions,how to read,measurement,value
"PhoQ, residues 284 288 289 292 302 303 GNNTDL","PhoP, residues 12 14 15 18 19 GHCSL (Escherichia coli, UniProt P23836)","Sort-seq, refers to: YFP reporter",E. coli,"PhoQ-PhoP variant library, with: 10 µM Mg2+","baseline: high Mg2+ state, higher = stronger signaling",fold induction,4.47
P1 D11N,"CCND2, cyclin fold, Cln2 fusion (human)","yeast growth competition, sequencing",yeast,weak parent motif,"baseline: not given, higher = stronger binding",normalised enrichment score,0.0436

# Some of these lines once more (series 2):
Substance,interaction screen
"H2AC20 (Homo sapiens, UniProt Q16777)",cross-linked
"H2AC18 (Homo sapiens, UniProt Q6FI13)",cross-linked
"H3-4 (Homo sapiens, UniProt Q16695)",cross-linked
